Assay results gathered from unrelated publications.
Numbers after ± are the reported error.

SMILES | test system | setting | quantity | result
OC[C@H]1O[C@@H](c2ccc(Cl)c(Cc3ccc(O[C@H]4CCOC4)cc3)c2)[C@H](O)[C@@H](O)[C@@H]1O | human, plasma | oral, dose not given, multiple doses, with: evogliptin | steady-state Cmax | 0.473 ± 0.117 µg/mL
Cc1cc(C)c(CNC(=O)c2cc(Cl)c3c(c2C)O[C@@](C)([C@H]2CC[C@H](N(C)C)CC2)O3)c(=O)[nH]1 | human, plasma | oral, dose not given, cycle 1 day 15, mean | steady-state apparent clearance (total) | 58.1 L/h
O=C(COc1ccc(Cl)cc1)NC12CC(c3nnc([C@H]4C[C@@H](OC(F)(F)F)C4)o3)(C1)C2 | healthy human both sexes, plasma | oral, 200 mg once daily, day 14, mean | steady-state Ctrough | 10 µM
N#CC[C@H](C1CCCC1)n1cc(-c2ncnc3[nH]ccc23)cn1 | human patients | oral, dose not given | steady-state plasma level | ~500 nM
COc1cc2c(Nc3ccc(Br)cc3F)ncnc2cc1OCC1CCN(C)CC1 | human patients, plasma | oral, 65 mg/m^2, day 42 | steady-state trough concentration | 684 ± 315 ng/mL
N#Cc1ccc(C(c2ccc(C#N)cc2)n2cncn2)cc1 | human patients, tumour extracellular fluid | 2.5 mg daily | steady-state concentration | 0.15 ± 0.02 µmol/L
CN(CC#N)C(=O)C[C@H](Nc1nc2ccccc2[nH]1)c1cccc(C(F)(F)F)c1 | human | intravenous infusion, 5 mg/kg, 1 mg/mL formulation | steady-state volume of distribution | 66.3 ± 22.4 L
CN(C)C(=O)c1cc2cnc(Nc3ccc(N4CCNCC4)cn3)nc2n1C1CCCC1 | human, advanced solid tumours, plasma | oral, 800 mg, day 14, expansion cohort, with: gemcitabine 1000 mg/m2 | steady-state clearance | 317 mL/min

Excerpt of the above:
SMILES | test system | setting | quantity | result
O=C(COc1ccc(Cl)cc1)NC12CC(c3nnc([C@H]4C[C@@H](OC(F)(F)F)C4)o3)(C1)C2 | healthy human both sexes, plasma | oral, 200 mg once daily, day 14, mean | steady-state Ctrough | 10 µM
